# Assay results from different studies.
# Protocols differ between the studies behind these lines. ± marks the error that the study gave.
SMILES,target or system,test,test system,setting,how to read,measurement,result
CNS(=O)(=O)Nc1nccc(Cc2c(C)c3ccc(Oc4ncccc4F)cc3oc2=O)c1F,NCI-H2228,cell viability,,7 days,,IC50,> 1000 nM
COC1CN([C@H]2CC[C@H]([C@@]3(C)Oc4c(Cl)cc(C(=O)NCc5c(SC)cc(C)[nH]c5=O)c(C)c4O3)CC2)C1,,"RNA-seq, measured: BEND7","human, whole blood","dose not given, 24 h",baseline: pretreatment baseline,log2 fold change,7.69
COc1cc(O)ccc1CCC(c1ccc(O)cc1)c1cc2c(c(C)c1O)OC(c1ccc(O)cc1)CC2 (mixture of isomers),,,human blood,"3 µM, added: A23187",,5-HEPE level,63 ± 28 pg/mL
CCN(CC)CC(=O)Nc1cccc(-n2cc(-c3ccc4ccc(-c5cn(-c6cccc(NC(=O)CN(CC)CC)c6)nn5)cc4c3)nn2)c1,RCC4,"PCR angiogenesis array, measured: TGFB2",,"5 x IC50, 2 h, normoxia",baseline: untreated,fold regulation,1.04 fold
Cc1ncsc1-c1ccc(C(C)NC(=O)C2CC(O)CN2C(=O)C(NC(=O)CCCCCCCCCCN2CCCC(Nc3ncc(Cl)c(Nc4ccccc4S(=O)(=O)C(C)C)n3)C2)C(C)(C)C)cc1 (centres unmarked),22Rv1,"RNA-seq, measured: ZNF888 mRNA",,concentration not given,baseline: DMSO,log2 fold change,-1.14
C=CC(=O)Nc1cccc(Cn2ncc3cnc(Nc4cnn(CCOC)c4)nc32)c1,CSNK1D human,"binding, KINOMEscan",,100 nM,lower = stronger binding,percent of control,100%
CN1CCCNC(=O)c2cccc(c2)C(=O)NCCCN(C)CCCNc2cccc3c2C(=O)c2cccc(c2C3=O)NCCC1,SAS,"RNA-seq, measured: LMLN-AS1 mRNA",,"1 µM, 6 h",baseline: untreated cells,log2 fold change,2.38
Nc1ncc(-c2cc(-c3cnn(CC(F)(F)F)c3)ncc2F)nc1C(=O)NC1CNCC(F)C1 (centres unmarked),FLT4,KINOMEscan,,1 µM,baseline: DMSO control,remaining binding,87%
